Results gathered from unrelated publications.
Numbered parts are unrelated; each lists some results of a single study. Positions count from the first letter of the parent shown.

Set 1 — method: DHFR PCA, deep sequencing; sample: yeast; added: (+)-ABA 0.39 µM; baseline: wild-type fitted maximum; direction: higher = stronger binding
Target: ABI1, truncated, D143A, DHFR fusion (Arabidopsis thaliana)
Setting: methotrexate growth selection, single substitutions
Parent: PYL1, truncated, DHFR fusion (Arabidopsis thaliana); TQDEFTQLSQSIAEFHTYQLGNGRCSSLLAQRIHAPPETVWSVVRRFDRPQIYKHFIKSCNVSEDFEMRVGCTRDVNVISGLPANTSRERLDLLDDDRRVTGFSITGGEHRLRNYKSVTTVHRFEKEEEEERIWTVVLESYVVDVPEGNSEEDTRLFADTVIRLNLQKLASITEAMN; partner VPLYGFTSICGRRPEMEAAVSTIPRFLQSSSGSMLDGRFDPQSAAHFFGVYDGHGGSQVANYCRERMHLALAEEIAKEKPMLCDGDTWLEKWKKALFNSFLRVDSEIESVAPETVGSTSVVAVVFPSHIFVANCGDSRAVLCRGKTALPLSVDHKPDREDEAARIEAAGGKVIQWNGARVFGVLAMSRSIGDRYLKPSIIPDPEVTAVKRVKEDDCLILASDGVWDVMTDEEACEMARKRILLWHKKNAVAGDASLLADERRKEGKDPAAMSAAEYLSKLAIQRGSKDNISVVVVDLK
| Change | relative binding score [%] |
| --- | --- |
| V137G | 8.05 |
| T154A | 7.42 |
| V121A | 18 |
| T173C | 67.1 |
| M176D | 16.8 |
| V161W | 73.6 |
| R98W | -9.25 |
| V70P | 55.6 |
| H16W | -5.83 |
| D96G | 3.99 |
| S42K | 34.6 |
| S80Y | 57.3 |
| N165T | 8.03 |
| A175Q | 44.7 |
| V136R | -10.9 |

Set 2 — method: protein binding microarray; molecule type: double-stranded DNA, one strand shown; sample: in vitro; tested at: not given; baseline: not given; direction: higher = stronger binding
Target: Histone acetyltransferase KAT6A, both winged helices, GST fusion (KAT6A, Homo sapiens, UniProt Q92794, residues 1-181)
Setting: 8-mer, flanks averaged, mean of 2 arrays, mostly near background
Residues (chain): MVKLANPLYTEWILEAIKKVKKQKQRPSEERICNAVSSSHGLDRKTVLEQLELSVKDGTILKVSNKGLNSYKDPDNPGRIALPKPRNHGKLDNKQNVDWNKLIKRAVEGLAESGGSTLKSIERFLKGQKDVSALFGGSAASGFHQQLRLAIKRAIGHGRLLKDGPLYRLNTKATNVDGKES
| Oligonucleotide | E-score |
| --- | --- |
| CGACACCG | 0.248 |
| ACTTGGGG | -0.0914 |
| TCTTCCCA | -0.204 |
| AAGTGCTA | -0.156 |
| GTAGGTCA | -0.117 |
| GTTAAATA | -0.0101 |
| AGCCAAAA | -0.219 |
| ATCTCCAA | -0.19 |
| GTAAGAGA | -0.0957 |
| AAAGCAGC | 0.0952 |
| ACATTACC | 0.0568 |
| ATTCGGAA | 0.0686 |
| GGGAGTGA | -0.0927 |
| ACGTCGAC | -0.00415 |
| AAACTCTC | -0.0921 |
| ACAGAGAA | -0.129 |

Set 3 — target: UBE2R2 UBC core domain (UniProt Q712K3); method: yeast two-hybrid; sample: yeast; setting: mostly zero background; baseline: not given; direction: higher = stronger interaction
B1: MARCHF1 RING domain (UniProt Q8TCQ1); chain TAPRSQSRLSVCPSTQDICRICHCEGDEESPLITPCRCTGTLRFVHQSCLHQWIKSSDTRCCELCKYDFIMETKLKPLRKWE
B2: CNOT4 RING domain (UniProt O95628); chain MSRSPDAKEDPVECPLCMEPLEIDDINFFPCTCGYQICRFCWHRIRTDENGLCPACRKPYPED
B3: MID2 RING domain (UniProt Q9UJV3); chain KMETLESELTCPICLELFEDPLLLPCAHSLCFSCAHRILVSSCSSGESIEPITAFQCPTCRYVISLNHRGL
B4: ARIH2 RING domain (UniProt O95376); chain HVPTSHPPHHCAVCMQFVRKENLLSLACQHQFCRSCWEQHCSVLVKDGVGVGVSCMAQDCPLRTPEDFVF
B5: RUFY1 RING domain (UniProt Q96T51); chain QALKGHAWLKDDEATHCRQCEKEFSISRRKHHCRNCGHIFCNTCSSNELALPSYPKPVRVCDSCHTLLLQRCSSTAS
B6: TRIM41 RING domain (UniProt Q8WV44); chain PVQTLQEEAVCAICLDYFTDPVSIGCGHNFCRVCVTQLWGGEDEEDRDELDREEEEEDGEEE
B7: RNF6 RING domain (UniProt Q9Y252); chain NSIDSELGKICSVCISDYVTGNKLRQLPCMHEFHIHCIDRWLSENCTCPICRQPVLGSNIAN
Residues (chain): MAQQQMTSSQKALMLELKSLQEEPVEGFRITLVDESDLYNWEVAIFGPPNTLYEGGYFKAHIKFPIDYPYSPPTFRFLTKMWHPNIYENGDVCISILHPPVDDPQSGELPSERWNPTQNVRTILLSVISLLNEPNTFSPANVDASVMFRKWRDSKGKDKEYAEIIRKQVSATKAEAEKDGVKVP
| Molecule | lacZ reporter activity |
| --- | --- |
| B1 (MARCHF1 RING domain) | 0 |
| EIKEYKARLTCPCCNTRKKDAVLTKCFHVFCFECVRGRYEARQRKCPKCNAAFGAHDFHR (RNF40 RING domain (UniProt O75150)) | 0 |
| B2 (CNOT4 RING domain) | 0 |
| B3 (MID2 RING domain) | 0 |
| ASPKIFQKTKCSICNSALELPSVHFLCGHSFHQHCFESYSESDADCPTCLPENRKVMDMI (VPS11 RING domain (UniProt Q9H270)) | 0 |
| B4 (ARIH2 RING domain) | 0 |
| B5 (RUFY1 RING domain) | 0 |
| LEALSSDFLACKICLEQLRAPKTLPCLHTYCQDCLAQLADGGRVRCPECRETVPVPPEGV (TRIM56 RING domain (UniProt Q9BRZ2)) | 0 |
| B6 (TRIM41 RING domain) | 0 |
| B7 (RNF6 RING domain) | 0 |

Set 4 — method: RNA Bind-n-Seq; molecule type: RNA; sample: in vitro; tested at: 365 nM; baseline: no-protein control; direction: higher = stronger binding
Target: RNA binding protein fox-1 homolog 2, RRM domain, GST-SBP tag (RBFOX2, Homo sapiens, UniProt O43251-10, residues 100-194)
Setting: natural RNA segment, single round, ends assumed
All sequences stand within: GGGAGUUCUACAGUCCGACGAUC … UGGAAUUCUCGGGUGCCAA
Target sequence (chain): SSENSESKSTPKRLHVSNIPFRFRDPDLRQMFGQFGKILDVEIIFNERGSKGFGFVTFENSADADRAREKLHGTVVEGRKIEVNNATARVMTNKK
| Oligonucleotide | RBNS enrichment (R) |
| --- | --- |
| CCAAUACUACUGUGUGUACCAAGUGUGGAGGGGCUGGUCACAUUGCUUCUGAUUGCAAAUUUCAGAGGCCUGGCGACCCUCAGUCAGCUCAGGAUAAAGCACGGAUGGAU | 0.346 |
| UUUAUCUUAUAAUUUCAGUUCAUCUAAAUUGUGUGUUCUGUACAUGUGAUGUUUGACUGUACCAUUGACUGUUAUGGAAGUUCAGCGUUGUAUGUCUCUCUCUACACUGU | 0.76 |
| UUCGCACAAUGGCAUUUGAACAAGGUGGCAAUCGGUUGGAGUAACAAACUCCCCCUUGCUGCUGCAGUUUCUCCUACCAGAAGUUUUUCUUUUCUUUUUUUAACCCUUAC | 0.558 |
| UCCCCUGGGAAGUGCUCUCAGCAGGCCUUGCGGAGCAGAGCAGAGCUGGGCAGAGCUGACUCCUGCCCCGCUGUCCCUGAUGGAACCUUCCUUCCAGAGCUGUGGAAGAG | 0.398 |
| UUCAUUUUUCUCACUGAGCCAGUGAUGGUUGCUAUCCUCUAGGAAAAAAAAAGAAACUGGGGUAGGUUGUAGGAGGGGGGCCCAGAAAGACACCCCUGUACCUCUUCUCC | 0.271 |
| AAAAGCCACUUUAUUUUAAAAUAUCAUGUGACAGAUACUUUCCAGAGCUACAACAUGCCAUCUAUAGUUGCCAGCCCUGGUCAGUUUUGAUUCUUAACCCCAUGGACUCC | 0.345 |
| CGGCCAGGAUGGCUGAGGGCGGAGUCUAUUUUACGCGUCGCCCAAUGACAGGACCUGGAAUGUACUGGCUGGGGUAGGCCUCAGUGAGUCGGCCGGUCAGGGCCCGCAGC | 0.947 |
| UUGCUUUCUUCCUUACUCUGCCCCACACACGUACACUUUCUGUAAAACUUGAAAAUAGAAAGCAAAAACCCUCAACUGUUGUAAAUCAUGCAAUUAAGGUUGAUUACUUA | 0.672 |
| UCCCCUACUACAGUUCUUGCUUCCAUGCAAGGUGAACCUGAGGGGAGGAAGGCGUGGCUCUCUGAAACCUUAACUGCAGAUGAAGUACAGUGGCAAGGAGGAGAGGGUGU | 0.25 |
| UAGGACUUUUAAACUUUAGAUCAAAAGAUAUGGUCCUUUUUAACUUUAUUUUUAAGGAGCAGACUUUAAAAUGAGCCCUGACCUUUACCCAUUAUAACAGAAUUUGUCAA | 0.483 |
| AGAGGAGCUCAAAGUUUGUGUGUAUUAAUAUGAAUUAGCUAACGUGAACUAUGUUUUGGAAAGUUACAACUACUUUUACAUUAAGGAUGAGAAACUGGAGUGUUUUUGAU | 0.906 |
| UGUGGAAGAGAAAGAUGGUCUCCUGAGUUUUUUAAAAUAGCUCACUUGGUGUGAUAUGGCUGACUCCCAUGUCCUUCUUUCUUGGCUGAAGCAAACCAGUUAAUCUCAGU | 0.368 |

Set 5 — target: CCND1, cyclin fold, Cln2 fusion (human); method: yeast growth competition, sequencing; sample: yeast; setting: weak parent motif; baseline: not given; direction: higher = stronger binding
Parent: BRCA2 docking peptide (human); PSIKRNLLNEFDR
| Change | normalised enrichment score |
| --- | --- |
| PSFKRNLLNEFDR [I3F] | -0.00441 |
| PSIKRNLLNEFKR [D12K] | 0.426 |
| YSIKRNLLNEFDR [P1Y] | 1.21 |
| PSYKRNLLNEFDR [I3Y] | 0.612 |
| PSIKRNLLNEGDR [F11G] | 0.625 |
| PSKKRNLLNEFDR [I3K] | 0.432 |
| PSIKRNLLNEFNR [D12N] | 0.542 |
| PSIKRNLLNEFYR [D12Y] | 0.788 |
| PCIKRNLLNEFDR [S2C] | 0.377 |
| PSIKRNLLNLFDR [E10L] | 0.956 |
| PSIKINLLNEFDR [R5I] | 0.484 |
| PSIKRNCLNEFDR [L7C] | 0.0679 |
| PSIKRNLLNEFDE [R13E] | 1.37 |
| PSIKRNLLAEFDR [N9A] | 1.64 |
| PSIKRNLRNEFDR [L8R] | -0.392 |
| PAIKRNLLNEFDR [S2A] | 0.259 |
| PIIKRNLLNEFDR [S2I] | 0.0995 |
| PSIKRNLPNEFDR [L8P] | -0.324 |
| PSIFRNLLNEFDR [K4F] | 0.165 |
| PHIKRNLLNEFDR [S2H] | -0.0895 |
| PSIKWNLLNEFDR [R5W] | 0.101 |
| PSIKRNLLNEHDR [F11H] | -0.336 |
| PSIKRNLLNEPDR [F11P] | -0.348 |
| PSIKRNLLNERDR [F11R] | 0.167 |

For quick reference, copied from above (set 1):
| Change | relative binding score [%] |
| --- | --- |
| V137G | 8.05 |
| T154A | 7.42 |
| V121A | 18 |
| T173C | 67.1 |
| M176D | 16.8 |
| V161W | 73.6 |
| R98W | -9.25 |
| V70P | 55.6 |
| H16W | -5.83 |
| D96G | 3.99 |
| S42K | 34.6 |
| S80Y | 57.3 |
| N165T | 8.03 |
